Experimental data pooled from the literature.
Parts stem from different laboratories: compare values within a part only. Positions count from the first letter of the parent shown.

Study 1
Target: CCND1, cyclin fold, Cln2 fusion (human)
Technique: yeast growth competition, sequencing
Sample: yeast
Notes: weak parent motif
Reference: not given
Direction: higher = stronger binding
Starting sequence: MICAL3 docking peptide (human); LQLRRQLSFSEDS
Variant | normalised enrichment score
LQLRRQLCFSEDS [S8C] | -0.0612
LQLRRQPSFSEDS [L7P] | 0.204
LQFRRQLSFSEDS [L3F] | 0.169
LQLRRQLSFSKDS [E11K] | 0.268
LQLRRQLSFREDS [S10R] | -0.0018
LSLRRQLSFSEDS [Q2S] | 0.668
LQLRRQLSFSEPS [D12P] | 0.394
LQLRRQESFSEDS [L7E] | 0.276
LQLRRQWSFSEDS [L7W] | 0.193
LQLRRQLSFMEDS [S10M] | 0.13
LQLRRQLSFVEDS [S10V] | -0.0396
LQLRRQLSFIEDS [S10I] | -0.0875
LQLRRQLSFSETS [D12T] | 0.329
LQLRRQVSFSEDS [L7V] | 0.0499
LQLMRQLSFSEDS [R4M] | 0.234
LQLRRQLFFSEDS [S8F] | 0.113
LNLRRQLSFSEDS [Q2N] | 0.656
LQLRRQLSKSEDS [F9K] | 0.0714
LQLHRQLSFSEDS [R4H] | 0.13
LQLRRQLSISEDS [F9I] | -0.363
LQLRRQLSFSNDS [E11N] | 0.365
LQLRRQLSFNEDS [S10N] | 0.359
LQLRRQLDFSEDS [S8D] | 0.165
LQLRYQLSFSEDS [R5Y] | 0.0798
LQLRRDLSFSEDS [Q6D] | -0.155

Study 2
Target: Ras GTPase-activating protein-binding protein 1, C-terminal RGG region (G3BP1, Homo sapiens, UniProt Q13283)
Chain of UniProt Q13283 (whole entry, looked up): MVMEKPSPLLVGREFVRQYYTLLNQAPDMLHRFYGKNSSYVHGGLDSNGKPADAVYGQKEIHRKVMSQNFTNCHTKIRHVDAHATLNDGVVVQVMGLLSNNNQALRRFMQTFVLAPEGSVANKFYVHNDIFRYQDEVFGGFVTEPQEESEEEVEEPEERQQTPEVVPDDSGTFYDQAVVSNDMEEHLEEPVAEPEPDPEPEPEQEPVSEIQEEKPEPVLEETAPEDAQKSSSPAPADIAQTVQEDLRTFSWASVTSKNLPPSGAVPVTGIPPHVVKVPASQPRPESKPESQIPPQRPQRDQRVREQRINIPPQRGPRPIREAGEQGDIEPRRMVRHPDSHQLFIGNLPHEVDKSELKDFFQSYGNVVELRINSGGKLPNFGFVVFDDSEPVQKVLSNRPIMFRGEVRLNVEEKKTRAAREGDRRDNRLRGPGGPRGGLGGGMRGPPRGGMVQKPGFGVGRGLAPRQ
Technique: RNA Bind-n-Seq
Molecule type: RNA
Sample: in vitro
Tested at: 1 µM
Notes: whole 134-nt RNA, ends assumed
With: 150 mM KCl
Reference: input library
Direction: higher = stronger binding
All sequences stand within: GGGAGUUCUACAGUCCGACGAUC … UGGAAUUCUCGGGUGUCAAGG
Strand | log2 enrichment
CAAGUCCUGUGCUACACAUCGUAUGUACCGAAUCGGAAAAAAAGGUUUUUGGUGGAAAGUAUUAUGUUACGCCGUUCGGAUCUGCACUUC | -1.83
UCCUGUGCUACACAUCGUAUGUACCGAAUCAAACCCCCAAAUUUUUAAAUUUUUUUAAAAAAGUAUUAUGUUACGCCGUUCGGAUCUGCA | -0.566
UUAUCUGUGGACUUCACCCAAAAGGAGUGGCAGCUACUGGAUCCCUCUCAGAAGAAUUUAUACAAGGAUGUGAUGUUGGAGAACUAUAGC | -1.03
UCAAGUCCUGUGCUACACAUCGUAUGUACCGAAUCGGGGCCGGCCGGGGCCGGGAAAGUAUUAUGUUACGCCGUUCGGAUCUGCACUUCC | -1.54
CAAGUCCUGUGCUACACAUCGUAUGUACCGAAUCGGCCCGGGCCCGGGGCCCGGGAAAGUAUUAUGUUACGCCGUUCGGAUCUGCACUUC | -1.98
UUUCUGUGUGCUUAGGUGCCCGAGCUACUGAGGGUCUAAGUCCGGGCAGCCGAAGAGUGUGGUAGGUAACGGUCCUCAGCGCAAGGGUCA | -0.449
UCAAGUCCUGUGCUACACAUCGUAUGUACCGAAUCGGGAAAAAGGGUGGGAGGGAAAGUAUUAUGUUACGCCGUUCGGAUCUGCACUUCC | 1.62
ACCAUGCAGGUGGGCAUCUUUGGGAAGUGGGGCAAGGGGGGGAUAGGGAGGGGGGUAACACUUUGGGAACCGGUGGUCCCAGGUCGUUUC | 2.03
UGCCCCUGGUGGCAUGCGGGGAGGAAGAGGUGGCCUCAUGGAUCGUGGUGGUCCCGGUGGAAUGUUCAGAGGUGGCCGUGGUGGAGACAG | 2.01
AAAAUGCAGGUGGGCAUCUUUGGGAAGUGGGGCAAGGGGGGGAUAGGGAGGGGGGUAACACUUUGGGAACAGGUGGUCCCAGGUCGUUUC | -1.14

Study 3
Target: ABI1, truncated, D143A, DHFR fusion (Arabidopsis thaliana)
Technique: DHFR PCA, deep sequencing
Sample: yeast
Notes: methotrexate growth selection, single substitutions
With: (+)-ABA 0 µM
Reference: wild-type fitted maximum
Direction: higher = stronger binding
Starting sequence: PYL1, truncated, DHFR fusion (Arabidopsis thaliana); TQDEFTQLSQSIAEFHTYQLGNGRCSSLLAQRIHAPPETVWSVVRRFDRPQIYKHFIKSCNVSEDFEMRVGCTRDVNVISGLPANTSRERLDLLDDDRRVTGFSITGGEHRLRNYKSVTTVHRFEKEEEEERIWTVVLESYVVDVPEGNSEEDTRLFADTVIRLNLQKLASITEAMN; partner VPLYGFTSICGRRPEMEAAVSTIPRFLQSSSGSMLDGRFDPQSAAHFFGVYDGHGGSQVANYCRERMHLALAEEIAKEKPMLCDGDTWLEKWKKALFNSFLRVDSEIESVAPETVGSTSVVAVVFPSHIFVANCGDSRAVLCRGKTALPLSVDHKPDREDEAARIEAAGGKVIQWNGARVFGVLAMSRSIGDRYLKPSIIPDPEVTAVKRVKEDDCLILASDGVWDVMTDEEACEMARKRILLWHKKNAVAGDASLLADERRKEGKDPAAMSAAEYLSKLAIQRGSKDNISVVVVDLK
Variant | relative binding score
V78L | 65.3%
K168F | -5.74%
T173H | 0.38%
T101L | 63.6%
T86D | -1.72%
S9G | 16.1%
H34P | 3.8%
A84K | 4.02%
V70R | 0.759%
R163T | 20.1%
S171D | 31.1%
A170V | -1.46%
E89Y | 8.56%
L112W | 17%
A175Y | -5.71%

Study 4
Target: Sal-like protein 4, full length isoform B (SALL4, Homo sapiens, UniProt Q9UJQ4-2, residues 1-616)
Technique: universal PBM
Molecule type: double-stranded DNA, one strand shown
Sample: in vitro
Tested at: not given
Notes: 8-mer, flanks averaged, mean of replicates
Direction: higher = stronger binding
Strand | E-score
GATAACGC | -0.0436
CGGGAAAA | -0.121
TCCGCTAA | -0.0795
GTGTCATA | 0.279
TGTGTAAA | 0.301
AGCCAACA | -0.0645
CGGTCAAA | 0.0499
GAAAAGTA | 0.23
TGAACAAA | 0.153
GGTCACTA | -0.0239
ACTGGTCT | -0.161
AACGCCTT | 0.0639
ACCAGGAC | -0.0915
AACGAACA | 0.217
AGAATCCT | -0.0548
ATGCGAAA | 0.227
CAAGAGTC | 0.0623
GCCGCATA | 0.0863
AGCGCCGA | -0.199
GCTCGCCC | -0.335
ACAGCTAT | 0.124
CACCAACA | -0.191
CTGAACTA | -0.0563
TCCTATCA | 0.132
ATAGTACG | 0.154

Repeated from above (study 3):
Variant | relative binding score
H34P | 3.8%
A84K | 4.02%
V70R | 0.759%
R163T | 20.1%
S171D | 31.1%
